Published values gathered from unrelated publications.
Protocols differ between the studies behind these lines. ± marks the error that the study gave.
B1: enzyme (Trypanosoma brucei, UniProt Q9GV41); chain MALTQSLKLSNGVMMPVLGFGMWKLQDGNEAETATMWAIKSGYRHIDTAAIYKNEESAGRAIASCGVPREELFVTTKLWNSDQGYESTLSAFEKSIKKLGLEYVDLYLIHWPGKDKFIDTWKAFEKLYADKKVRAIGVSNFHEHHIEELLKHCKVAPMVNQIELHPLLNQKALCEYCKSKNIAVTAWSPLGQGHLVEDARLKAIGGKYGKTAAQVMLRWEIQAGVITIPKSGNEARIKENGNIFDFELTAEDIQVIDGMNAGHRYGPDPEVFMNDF
B2: bglA A17S/S39T/T105V (Acetivibrio thermocellus, UniProt P26208); chain MSKITFPKDFIWGSATSAYQIEGAYNEDGKGESIWDRFTHTPGNIADGHTGDVACDHYHRYEEDIKIMKEIGIKSYRFSISWPRIFPEGTGKLNQKGLDFYKRLVNLLLENGIMPAITLYHWDLPQKLQDKGGWKNRDTTDYFTEYSEVIFKNLGDIVPIWFTHNEPGVVSLLGHFLGIHAPGIKDLRTSLEVSHNLLLSHGKAVKLFREMNIDAQIGIALNLSYHYPASEKAEDIEAAELSFSLAGRWYLDPVLKGRYPENALKLYKKKGIELSFPEDDLKLISQPIDFIAFNNYSSEFIKYDPSSESGFSPANSILEKFEKTDMGWIIYPEGLYDLLMLLDRDYGKPNIVISENGAAFKDEIGSNGKIEDTKRIQYLKDYLTQAHRAIQDGVNLKAYYLWSLLDNFEWAYGYNKRFGIVHVNFDTLERKIKDSGYWYKEVIKNNGF
B3: enzyme (Pseudomonas aeruginosa, UniProt Q9HWT7); chain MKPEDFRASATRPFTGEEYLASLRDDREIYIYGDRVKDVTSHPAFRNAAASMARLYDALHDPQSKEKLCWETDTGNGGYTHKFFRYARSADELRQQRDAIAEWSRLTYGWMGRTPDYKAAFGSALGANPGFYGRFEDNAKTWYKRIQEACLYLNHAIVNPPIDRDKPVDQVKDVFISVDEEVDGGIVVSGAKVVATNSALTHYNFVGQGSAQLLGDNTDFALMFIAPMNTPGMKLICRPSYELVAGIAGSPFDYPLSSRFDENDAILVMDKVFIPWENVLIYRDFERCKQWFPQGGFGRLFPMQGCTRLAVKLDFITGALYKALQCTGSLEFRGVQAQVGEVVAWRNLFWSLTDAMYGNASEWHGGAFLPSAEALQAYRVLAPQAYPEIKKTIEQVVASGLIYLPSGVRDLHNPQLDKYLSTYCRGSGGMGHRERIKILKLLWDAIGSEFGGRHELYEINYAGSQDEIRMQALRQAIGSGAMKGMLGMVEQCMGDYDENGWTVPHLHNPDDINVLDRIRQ
B4: enzyme (Enterococcus faecalis, UniProt Q836M4); chain MEIHFEKVTSDNRKAVENLQVFAEQQAFIESMAENLKESDQFPEWESAGIYDGNQLIGYAMYGRWQDGRVWLDRFLIDQRFQGQGYGKAACRLLMLKLIEKYQTNKLYLSVYDTNSSAIRLYQQLGFVFNGELDTNGERVMEWTHQNK
B5: enzyme A477T (Populus trichocarpa, UniProt A0A2K1ZZ60); chain ITRQYTFNITHKNFTRLCHTRSLVTVNGQFPGPRLVAREGDQVLVKVVNHVAENITIHWHGVRQLTSGWADGPAYVTQCPIQTGQAYTYNFTITGQRGTLLWHAHISWLRSSLYGPIIILPKLNESYPFKKPYKEIPILFGEWFNVDPEAVIAQALQTGAGPNVSDAYTINGLPGPLYNCSAKDTYKLKVKPGKTYLLRLINAALNDELFFSIANHTLTVVEADAVYVKPFEADTLLISPGQTTNVLLKTKPHLPNATFYMFAGPYFSGMGSFDNSTTAGVLVYKHPSSNNHLKKLPTLKPTLPPINATGFVANFTKKFRSLANAKFPANVPQTVDRKFFFTVGLGTNPCPKNTTCQGPNNNTKFAASINNVSFVLPSVALLQSYFFGQSNGVFTSDFPQNPTIPFNYTGTPPNNTMVSNGTKAVVLTFNTSVELVMQGTSIVTAESHPLHLHGFNFFVVGQGFGNYDPNKDPSNFNLVDPMERNTAGVPAGGWIAIRFLADNPGVWFMHCHLDVHTSWGLRMAWIVLDGPQPNQKIPPPPSDLPKC
Sequence of UniProt Q927X3 (whole entry, looked up): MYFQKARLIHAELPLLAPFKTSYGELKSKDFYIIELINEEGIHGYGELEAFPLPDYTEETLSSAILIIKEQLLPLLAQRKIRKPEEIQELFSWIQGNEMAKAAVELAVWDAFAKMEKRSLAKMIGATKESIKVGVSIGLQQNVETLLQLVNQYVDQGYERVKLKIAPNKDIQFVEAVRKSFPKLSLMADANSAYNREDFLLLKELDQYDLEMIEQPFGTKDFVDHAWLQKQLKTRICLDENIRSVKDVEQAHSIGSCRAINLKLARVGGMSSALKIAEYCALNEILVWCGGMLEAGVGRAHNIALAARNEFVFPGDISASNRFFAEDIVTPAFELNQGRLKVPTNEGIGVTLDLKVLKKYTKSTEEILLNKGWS
Sequence of UniProt A0A0K8P6T7 (whole entry, looked up): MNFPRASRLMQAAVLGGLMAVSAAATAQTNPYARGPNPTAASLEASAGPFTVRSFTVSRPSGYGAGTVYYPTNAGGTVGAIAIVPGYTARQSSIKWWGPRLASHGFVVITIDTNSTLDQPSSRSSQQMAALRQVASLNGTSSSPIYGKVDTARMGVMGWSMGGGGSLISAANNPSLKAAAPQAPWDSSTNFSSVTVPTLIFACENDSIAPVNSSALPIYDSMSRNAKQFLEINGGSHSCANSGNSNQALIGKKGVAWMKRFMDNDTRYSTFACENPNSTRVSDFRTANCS
Sequence of UniProt P30566 (whole entry, looked up): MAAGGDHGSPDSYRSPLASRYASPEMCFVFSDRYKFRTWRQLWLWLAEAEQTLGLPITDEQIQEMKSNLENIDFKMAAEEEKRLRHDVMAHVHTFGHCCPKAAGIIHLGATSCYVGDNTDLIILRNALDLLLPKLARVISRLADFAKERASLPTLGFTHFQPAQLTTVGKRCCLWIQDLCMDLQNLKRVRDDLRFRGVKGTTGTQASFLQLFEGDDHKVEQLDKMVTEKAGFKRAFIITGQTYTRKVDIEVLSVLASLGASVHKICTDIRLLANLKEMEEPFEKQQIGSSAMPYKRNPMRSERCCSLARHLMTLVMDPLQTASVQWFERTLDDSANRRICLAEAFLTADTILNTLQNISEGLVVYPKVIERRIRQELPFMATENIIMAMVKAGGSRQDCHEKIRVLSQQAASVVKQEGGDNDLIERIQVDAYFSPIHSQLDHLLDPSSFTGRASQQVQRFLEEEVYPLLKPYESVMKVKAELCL
Sequence of UniProt O31616 (whole entry, looked up): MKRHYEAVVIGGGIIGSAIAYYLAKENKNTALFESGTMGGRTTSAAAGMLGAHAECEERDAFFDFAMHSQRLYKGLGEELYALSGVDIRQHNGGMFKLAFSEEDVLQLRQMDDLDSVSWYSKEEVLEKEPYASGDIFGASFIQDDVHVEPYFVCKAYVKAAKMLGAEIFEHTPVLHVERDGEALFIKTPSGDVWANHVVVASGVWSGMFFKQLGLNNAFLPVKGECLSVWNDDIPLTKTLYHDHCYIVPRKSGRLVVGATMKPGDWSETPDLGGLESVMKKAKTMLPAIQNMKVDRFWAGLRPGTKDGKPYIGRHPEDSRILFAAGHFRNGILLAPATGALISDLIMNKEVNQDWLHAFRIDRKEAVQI
Sequence of UniProt Q5JHM5 (whole entry, looked up): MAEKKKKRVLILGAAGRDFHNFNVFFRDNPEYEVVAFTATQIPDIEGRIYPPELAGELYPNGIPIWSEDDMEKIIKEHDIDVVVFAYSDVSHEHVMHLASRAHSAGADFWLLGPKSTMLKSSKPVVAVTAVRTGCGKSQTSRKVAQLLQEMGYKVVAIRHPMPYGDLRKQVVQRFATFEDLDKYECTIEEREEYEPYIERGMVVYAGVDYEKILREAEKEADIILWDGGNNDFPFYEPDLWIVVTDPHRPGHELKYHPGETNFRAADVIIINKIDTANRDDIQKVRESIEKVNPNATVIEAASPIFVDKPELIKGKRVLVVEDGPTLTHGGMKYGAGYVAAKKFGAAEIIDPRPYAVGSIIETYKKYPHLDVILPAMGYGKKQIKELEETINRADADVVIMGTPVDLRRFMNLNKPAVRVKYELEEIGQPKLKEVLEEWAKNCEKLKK

Molecule | tested on | assay | test system | conditions | how to read | endpoint | result
B1 (enzyme) | [H][C@]12C[C@]([H])(OO1)[C@H](C/C=C\CCCC(=O)O)[C@H]2/C=C/[C@@H](O)CCCCC | steady-state kinetics |  | pH 7, 37 °C |  | kcat | 1.05 s⁻¹
enzyme (Listeria innocua, UniProt Q927X3) | O=C(O)CCC(=O)C1=CC=C[C@@H](O)[C@@H]1C(=O)O | steady-state kinetics |  | pH 8, 25 °C |  | kcat | 370 ± 40 s⁻¹
nfsB K14R (Escherichia coli) | NC(=O)N/N=C/c1ccc([N+](=O)[O-])o1 | steady-state kinetics |  | pH 7, 37 °C |  | kcat | 2.7 ± 0.3 s⁻¹
enzyme (Thermococcus kodakarensis, UniProt Q5JHM5) | N=C(N)NCCC[C@H](N)C(=O)O | steady-state kinetics |  | pH 7.5, 80 °C |  | kcat | 28.6 ± 0.2 s⁻¹
enzyme (Aptenodytes forsteri, UniProt A0A087QWN2) | C[C@]12CCC(=O)C=C1CC[C@@H]1[C@@H]2CC[C@]2(C)C(=O)CC[C@@H]12 | steady-state kinetics |  | pH 7.4 |  | kcat | 0.02 s⁻¹
enzyme (Pseudideonella sakaiensis, UniProt A0A0K8P6T7) | O=C(OCCO)c1ccc(C(=O)OCCO)cc1 | steady-state kinetics |  | 30 °C |  | kcat | 6.5 s⁻¹
B2 (bglA A17S/S39T/T105V) | O=[N+]([O-])c1ccc(O[C@@H]2O[C@H](CO)[C@@H](O)[C@H](O)[C@H]2O)cc1 | steady-state kinetics |  | pH 5.5, 60 °C |  | kcat | 282 ± 5 s⁻¹
B3 (enzyme) | O=C(O)/C=C/c1ccc(O)cc1 | steady-state kinetics |  | pH 8, 37 °C, added: NADH 1 mM, FAD 10 µM, HpaC |  | kcat | 0.0624 ± 0.00205 s⁻¹
enzyme (Bacillus subtilis, UniProt O31616) | O=C(O)CNCP(=O)(O)O | steady-state kinetics |  | pH 8, 25 °C |  | kcat | 0.443 ± 0.056 s⁻¹
Cj1438c (Campylobacter jejuni, UniProt Q0P8H6) | NCCOP(=O)(O)O | steady-state kinetics |  | pH 8, 25 °C, apparent |  | kcat | 3 ± 0.1 s⁻¹
ADSL (Homo sapiens, UniProt P30566) | Nc1c(C(=O)N[C@@H](CC(=O)O)C(=O)O)ncn1[C@@H]1O[C@H](COP(=O)(O)O)[C@@H](O)[C@H]1O | steady-state kinetics |  | pH 7.4, 25 °C |  | kcat | 90.2 ± 1.9 s⁻¹
B4 (enzyme) | NCCCCNCCCN | steady-state kinetics |  | pH 8, 37 °C, added: AcCoA 1 mM |  | kcat | 0.66 ± 0.02 s⁻¹
rCR L34A (Lodderomyces parapsilosis) | CC(=O)c1ccc(Cl)cc1 | steady-state kinetics |  | pH 7, 30 °C, added: NADH 0.5 mM |  | kcat | 4.93 ± 0.08 s⁻¹
B5 (enzyme A477T) | COc1cc(/C=C/CO)cc(OC)c1O | steady-state kinetics |  | 27 °C |  | kcat | 5.09 ± 0.69 s⁻¹
enzyme (Cyanidioschyzon merolae, UniProt M1V8C6) | Nc1ncnc2c1ncn2[C@@H]1O[C@H](COP(=O)(O)OP(=O)(O)OP(=O)(O)O)[C@@H](O)[C@H]1O | steady-state kinetics |  | pH 7.8, 30 °C |  | kcat | 22.3 ± 0.64 s⁻¹
insulin human |  | measured: ADCY1 mRNA | uninfected mouse, brain | i.p., dose not given | relative to: PBS | fold change | 1.33
fcl (Campylobacter jejuni, UniProt Q0P8I6) | Nc1nc2c(ncn2[C@@H]2O[C@H](COP(=O)(O)OP(=O)(O)O[C@H]3O[C@@H](CCO)C(=O)[C@@H](O)[C@@H]3O)[C@@H](O)[C@H]2O)c(=O)[nH]1 | steady-state kinetics |  | pH 7.5, 25 °C, apparent |  | kcat | 3.1 ± 0.2 s⁻¹
GcL (Parageobacillus, UniProt A0A023DFE8) | CCCC(=O)N[C@H]1CCOC1=O | steady-state kinetics |  | pH 8.3, added: CoCl2 0.2 mM |  | kcat | 19.5 ± 2.6 s⁻¹
pdc E473D (Zymomonas mobilis) | CC(=O)C(=O)O | steady-state kinetics |  | pH 6, 30 °C |  | kcat | 0.1 ± 0.003 s⁻¹

Repeated from above:
Molecule | tested on | assay | test system | conditions | how to read | endpoint | result
enzyme (Cyanidioschyzon merolae, UniProt M1V8C6) | Nc1ncnc2c1ncn2[C@@H]1O[C@H](COP(=O)(O)OP(=O)(O)OP(=O)(O)O)[C@@H](O)[C@H]1O | steady-state kinetics |  | pH 7.8, 30 °C |  | kcat | 22.3 ± 0.64 s⁻¹
enzyme (Listeria innocua, UniProt Q927X3) | O=C(O)CCC(=O)C1=CC=C[C@@H](O)[C@@H]1C(=O)O | steady-state kinetics |  | pH 8, 25 °C |  | kcat | 370 ± 40 s⁻¹
